Measured values collected from several papers.
Every numbered part comes from another study and shows a few of its results, in no order. Values joined by “and” are separate records of one study, mostly repeats; a detail may differ.
Chain of UniProt Q9UL54 (whole entry, looked up): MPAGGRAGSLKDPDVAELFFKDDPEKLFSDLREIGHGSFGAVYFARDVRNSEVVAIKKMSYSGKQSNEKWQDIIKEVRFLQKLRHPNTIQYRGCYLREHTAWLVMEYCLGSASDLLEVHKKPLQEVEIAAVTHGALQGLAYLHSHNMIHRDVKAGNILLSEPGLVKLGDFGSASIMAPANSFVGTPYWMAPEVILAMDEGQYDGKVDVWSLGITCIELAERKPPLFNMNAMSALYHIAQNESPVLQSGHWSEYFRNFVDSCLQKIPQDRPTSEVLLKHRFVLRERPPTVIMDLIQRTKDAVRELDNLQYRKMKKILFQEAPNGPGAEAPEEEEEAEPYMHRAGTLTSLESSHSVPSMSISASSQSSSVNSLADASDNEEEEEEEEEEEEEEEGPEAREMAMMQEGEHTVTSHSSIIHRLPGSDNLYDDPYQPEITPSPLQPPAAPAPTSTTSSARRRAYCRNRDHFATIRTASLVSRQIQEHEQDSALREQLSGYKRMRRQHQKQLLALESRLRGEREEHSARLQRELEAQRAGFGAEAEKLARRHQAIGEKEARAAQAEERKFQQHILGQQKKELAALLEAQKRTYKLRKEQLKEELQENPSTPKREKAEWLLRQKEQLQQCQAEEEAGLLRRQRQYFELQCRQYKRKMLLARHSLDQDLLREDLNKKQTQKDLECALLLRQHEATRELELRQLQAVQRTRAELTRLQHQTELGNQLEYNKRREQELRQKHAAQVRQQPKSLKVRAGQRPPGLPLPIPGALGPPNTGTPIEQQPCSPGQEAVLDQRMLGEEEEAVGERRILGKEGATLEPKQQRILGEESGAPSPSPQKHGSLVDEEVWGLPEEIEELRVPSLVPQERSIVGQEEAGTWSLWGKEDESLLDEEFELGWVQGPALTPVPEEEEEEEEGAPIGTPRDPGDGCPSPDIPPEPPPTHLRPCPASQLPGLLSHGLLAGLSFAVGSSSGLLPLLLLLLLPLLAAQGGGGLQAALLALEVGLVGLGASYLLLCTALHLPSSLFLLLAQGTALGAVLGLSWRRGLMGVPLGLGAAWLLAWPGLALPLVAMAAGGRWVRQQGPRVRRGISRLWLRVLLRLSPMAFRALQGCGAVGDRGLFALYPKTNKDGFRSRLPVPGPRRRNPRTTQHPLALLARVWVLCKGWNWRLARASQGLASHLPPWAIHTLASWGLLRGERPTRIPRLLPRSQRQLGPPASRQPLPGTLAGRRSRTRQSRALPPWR
Chain of UniProt P49840 (whole entry, looked up): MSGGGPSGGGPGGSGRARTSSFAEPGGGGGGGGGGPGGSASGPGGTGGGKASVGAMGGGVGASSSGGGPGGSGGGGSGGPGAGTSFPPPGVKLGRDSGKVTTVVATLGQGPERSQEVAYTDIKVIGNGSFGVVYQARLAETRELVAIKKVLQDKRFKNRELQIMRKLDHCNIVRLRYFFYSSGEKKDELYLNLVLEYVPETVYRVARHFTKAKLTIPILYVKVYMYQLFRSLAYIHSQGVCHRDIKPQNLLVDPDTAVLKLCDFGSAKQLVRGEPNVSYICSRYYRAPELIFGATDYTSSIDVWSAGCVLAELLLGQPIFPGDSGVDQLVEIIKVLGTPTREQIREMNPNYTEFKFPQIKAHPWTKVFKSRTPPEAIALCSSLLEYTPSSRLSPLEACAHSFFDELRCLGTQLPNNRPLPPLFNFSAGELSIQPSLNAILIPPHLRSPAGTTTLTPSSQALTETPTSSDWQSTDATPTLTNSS
Chain of UniProt Q8TD19 (whole entry, looked up): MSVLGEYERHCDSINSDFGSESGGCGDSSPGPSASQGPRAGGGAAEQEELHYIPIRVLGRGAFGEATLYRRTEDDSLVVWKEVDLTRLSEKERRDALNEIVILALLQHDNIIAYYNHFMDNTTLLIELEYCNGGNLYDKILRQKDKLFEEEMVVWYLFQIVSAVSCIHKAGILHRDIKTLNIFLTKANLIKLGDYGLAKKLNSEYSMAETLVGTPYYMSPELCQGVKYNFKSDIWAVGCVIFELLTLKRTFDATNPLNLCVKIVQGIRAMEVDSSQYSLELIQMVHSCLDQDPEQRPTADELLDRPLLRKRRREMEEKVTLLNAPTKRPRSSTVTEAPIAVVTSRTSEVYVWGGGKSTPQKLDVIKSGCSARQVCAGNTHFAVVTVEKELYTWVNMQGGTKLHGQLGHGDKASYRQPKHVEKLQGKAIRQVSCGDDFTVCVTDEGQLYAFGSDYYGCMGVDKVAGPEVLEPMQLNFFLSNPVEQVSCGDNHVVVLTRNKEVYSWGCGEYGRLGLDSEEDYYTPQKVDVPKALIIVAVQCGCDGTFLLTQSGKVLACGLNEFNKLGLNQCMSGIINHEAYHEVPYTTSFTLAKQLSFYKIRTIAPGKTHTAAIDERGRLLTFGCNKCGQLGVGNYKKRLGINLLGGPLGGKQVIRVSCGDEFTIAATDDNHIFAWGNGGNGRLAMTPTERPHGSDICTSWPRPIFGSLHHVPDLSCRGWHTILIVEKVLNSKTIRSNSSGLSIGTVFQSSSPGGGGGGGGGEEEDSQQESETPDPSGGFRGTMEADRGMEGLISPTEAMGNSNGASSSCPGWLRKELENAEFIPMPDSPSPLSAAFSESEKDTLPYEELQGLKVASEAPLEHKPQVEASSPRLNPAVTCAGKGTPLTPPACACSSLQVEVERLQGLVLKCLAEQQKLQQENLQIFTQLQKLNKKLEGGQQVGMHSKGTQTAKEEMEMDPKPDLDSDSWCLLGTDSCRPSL
Chain of UniProt Q96SB4 (whole entry, looked up): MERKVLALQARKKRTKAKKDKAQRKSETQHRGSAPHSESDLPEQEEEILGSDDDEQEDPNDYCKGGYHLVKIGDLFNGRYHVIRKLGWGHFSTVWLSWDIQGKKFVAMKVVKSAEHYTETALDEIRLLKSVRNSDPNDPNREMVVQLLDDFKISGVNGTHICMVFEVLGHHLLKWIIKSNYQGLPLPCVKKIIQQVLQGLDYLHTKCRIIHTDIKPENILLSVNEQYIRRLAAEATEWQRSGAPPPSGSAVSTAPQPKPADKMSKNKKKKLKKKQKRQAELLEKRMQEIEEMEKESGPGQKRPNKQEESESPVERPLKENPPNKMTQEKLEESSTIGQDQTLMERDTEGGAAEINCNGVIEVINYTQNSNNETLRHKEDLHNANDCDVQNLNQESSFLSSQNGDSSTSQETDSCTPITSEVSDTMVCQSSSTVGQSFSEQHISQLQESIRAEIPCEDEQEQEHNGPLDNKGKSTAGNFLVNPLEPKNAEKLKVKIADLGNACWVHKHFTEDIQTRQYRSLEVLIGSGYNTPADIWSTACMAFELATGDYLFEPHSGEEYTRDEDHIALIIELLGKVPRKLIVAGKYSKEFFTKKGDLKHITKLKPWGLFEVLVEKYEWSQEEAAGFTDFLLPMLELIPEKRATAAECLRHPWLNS
Chain of UniProt Q9H2K8 (whole entry, looked up): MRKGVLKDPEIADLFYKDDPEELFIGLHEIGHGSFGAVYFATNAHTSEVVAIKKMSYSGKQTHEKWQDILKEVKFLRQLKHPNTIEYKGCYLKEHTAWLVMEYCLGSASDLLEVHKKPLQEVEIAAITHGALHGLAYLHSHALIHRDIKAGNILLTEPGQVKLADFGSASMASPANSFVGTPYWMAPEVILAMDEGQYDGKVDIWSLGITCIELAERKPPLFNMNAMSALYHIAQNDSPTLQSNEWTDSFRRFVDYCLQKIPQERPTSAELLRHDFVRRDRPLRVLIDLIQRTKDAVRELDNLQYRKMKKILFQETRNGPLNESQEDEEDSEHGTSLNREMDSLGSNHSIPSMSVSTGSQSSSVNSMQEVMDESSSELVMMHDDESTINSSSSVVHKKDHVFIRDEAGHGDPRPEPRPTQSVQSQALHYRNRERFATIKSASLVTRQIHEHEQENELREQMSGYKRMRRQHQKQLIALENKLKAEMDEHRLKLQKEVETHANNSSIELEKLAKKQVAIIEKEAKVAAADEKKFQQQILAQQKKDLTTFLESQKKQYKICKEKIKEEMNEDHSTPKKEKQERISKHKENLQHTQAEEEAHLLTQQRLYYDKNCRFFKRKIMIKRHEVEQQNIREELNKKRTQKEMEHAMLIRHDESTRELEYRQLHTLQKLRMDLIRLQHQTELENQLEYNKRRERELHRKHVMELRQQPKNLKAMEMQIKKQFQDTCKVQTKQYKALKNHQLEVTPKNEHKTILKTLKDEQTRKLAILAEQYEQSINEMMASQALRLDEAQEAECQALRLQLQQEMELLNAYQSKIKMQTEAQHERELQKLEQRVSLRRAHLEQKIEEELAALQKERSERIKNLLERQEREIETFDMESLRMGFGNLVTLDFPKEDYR

Set 1
SMILES: COc1cc(C(=O)OCCCN2CCCN(CCCOC(=O)c3cc(OC)c(OC)c(OCc4ccc([N+](=O)[O-])cc4)c3)CC2)cc(OC)c1OC
Endpoint: paw withdrawal frequency
von Frey, 0.4 g filament; mouse, CFA inflammatory pain; intravenous, dose not given, 3 h post-dose, second injection, day 3: 20% and 30%
von Frey, 0.4 g filament; mouse, CFA inflammatory pain; subcutaneous, 10 mg/kg, 24 h post-dose, third injection, day 5: 70% and 80% and 90%
von Frey, 0.4 g filament; mouse, CFA inflammatory pain; subcutaneous, 10 mg/kg, 1 h post-dose, second injection, day 3: 80% and 50% and 70%
von Frey test; mouse, CFA inflammatory pain; intrathecal, dose not given, 24 h, added: DPCPX 10 nmol intrathecal: 70% and 80% and 60%
von Frey, 0.4 g filament; mouse, CFA inflammatory pain; subcutaneous, 10 mg/kg, 5 h post-dose, third injection, day 5: 40% and 70% and 60% and 50%
von Frey, 0.4 g filament; mouse, CFA inflammatory pain; subcutaneous, 10 mg/kg, 3 h post-dose, first injection, day 1: 70% and 50% and 80%
von Frey, 0.4 g filament; mouse, CFA inflammatory pain; subcutaneous, 10 mg/kg, 3 h post-dose, second injection, day 3: 30% and 50% and 40%
von Frey test; mouse, spared nerve injury; intrathecal, 100 nmol, third of 3 doses, 1 h: 0% and 30% and 20%

Set 2
SMILES: Cn1cc(-c2cccc(CN3CCC4(CC3)COc3c4ccc4c3CN([C@H]3CCC(=O)NC3=O)C4=O)c2)cn1
Species: Crbn I391V mouse, MC-38 tumour
Endpoint: body weight change
oral, daily, 30 mg/kg, day 22, anti-PD1 combination study: -1.1% and 6.3% and 9% and 4.5% and -0.3%
30 mg/kg, day 46, added: anti-LAG3 antibody 10 mg/kg weekly: 11.1%
30 mg/kg, day 44, added: anti-LAG3 antibody 10 mg/kg weekly: 9.9%
oral, daily, 30 mg/kg, day 1, anti-PD1 combination study: 0%
30 mg/kg, day 1, added: anti-LAG3 antibody 10 mg/kg weekly: 0%
30 mg/kg, day 34, added: anti-LAG3 antibody 10 mg/kg weekly: 6.6% and -2.8% and 2.1%
30 mg/kg, day 17, added: anti-LAG3 antibody 10 mg/kg weekly: 1.4% and -0.3% and 5.3% and 7.4% and 0% and -2.9% and 1.2% and -0.8%
30 mg/kg, day 39, added: anti-LAG3 antibody 10 mg/kg weekly: 9.5%
30 mg/kg, day 13, added: anti-LAG3 antibody 10 mg/kg weekly: 0.8% and 1.1% and 6.1% and -0.8%
oral, 30 mg/kg once daily, day 3: -2.5% and -0.5% and -0.8% and -2%
oral, 30 mg/kg once daily, day 14: 0.8% and 6.2% and -2.1% and 1% and -0.5%
oral, 30 mg/kg once daily, day 22: 0.4% and 1.5% and -3.6% and 5.1% and 2.1%

Set 3
Compound: CNc1ncc2cc(-c3cc(OC)cc(OC)c3Cl)c(=O)n(CCc3ccc(NC(=O)C(C#N)=CC(C)(C)N4CCOCC4)cc3)c2n1
Effect on: kinase activity
Endpoint: inhibition
TAOK3 (Homo sapiens, UniProt Q9H2K8); 1 µM: 13%
SRC (Homo sapiens, UniProt P12931); 0.1 µM: 5%
NEK9 (Homo sapiens, UniProt Q8TD19); 0.1 µM: 4%
SRPK1 (Homo sapiens, UniProt Q96SB4); 0.1 µM: 1%
TAOK2 (Homo sapiens, UniProt Q9UL54); 0.1 µM: 6%
GSK3A (Homo sapiens, UniProt P49840); 1 µM: -7%
HIPK4 (Homo sapiens, UniProt Q8NE63); 0.1 µM: -5%
PHKG1 (Homo sapiens, UniProt Q16816); 1 µM: -10%

Further values, each from its own experiment
C=CCN1C(=O)C(O)(C(=O)O)Oc2cc(F)ccc21 (centres unmarked) — inhibition (Arabidopsis thaliana; hypocotyl length; Col-0; 50.0 µg/mL, 7 days, seed germination, dark): 26.1%

Some of these lines once more (set 1):
von Frey, 0.4 g filament; mouse, CFA inflammatory pain; subcutaneous, 10 mg/kg, 5 h post-dose, third injection, day 5: 40% and 70% and 60% and 50%
von Frey, 0.4 g filament; mouse, CFA inflammatory pain; subcutaneous, 10 mg/kg, 3 h post-dose, first injection, day 1: 70% and 50% and 80%
von Frey, 0.4 g filament; mouse, CFA inflammatory pain; subcutaneous, 10 mg/kg, 3 h post-dose, second injection, day 3: 30% and 50% and 40%
von Frey test; mouse, spared nerve injury; intrathecal, 100 nmol, third of 3 doses, 1 h: 0% and 30% and 20%
